Experimental data of several laboratories.
Each numbered part is a random draw from the data of one study; scales do not carry over between parts.

Block 1
Target: Replicase polyprotein 1ab, main protease (rep, Severe acute respiratory syndrome coronavirus 2, UniProt P0DTD1)
Effect on: enzyme activity
Mode: inhibitor
Concentration: 20 µM
Setting: hit confirmation
For `O=[N+]([O-])c1ccc(O)c2ncccc12`, the inhibition was 55.3%.
For `O=c1c2ccccc2sn1-c1ccccc1`, the inhibition was 109%.
The inhibition of `O=C1c2cccc(O)c2C(=O)c2c(O)cccc21` is reported as 30.1%.
For `CCn1c(-c2nonc2N)nc2cnc(Oc3cccc(NC(=O)c4ccc(OCCN5CCOCC5)cc4)c3)cc21`, the inhibition was 60.4%.

Block 2
Cell line: HEK-293T
Organism: VSV pseudotyped with SARS-CoV-2 spike
Concentration: 10 µM
Time: 16 h
The pseudovirus infection of `CC(C)c1cccc(C(C)C)c1O` is reported as 97.6%.
`NS(=O)(=O)c1cc(C(=O)O)c(NCc2ccco2)cc1Cl` has a pseudovirus infection of 94%.
`CNCCCC1c2ccccc2C=Cc2ccccc21` gave a pseudovirus infection of 36.7%.
`Cc1cccc([C@H](C)c2cnc[nH]2)c1C` gave a pseudovirus infection of 89.4%.

Block 3
Target: Fragile X messenger ribonucleoprotein 1, C-terminal low-complexity region (Fmr1, Mus musculus, UniProt P35922)
Method: RNA Bind-n-Seq
Molecule type: RNA
Matrix: in vitro
Concentration: 200 nM
Setting: whole 134-nt RNA, ends assumed
Added: 150 mM LiCl
Reference: input library
Direction: higher = stronger binding
Library: 7-deaza-guanosine replaces G
Constant ends, left off below: GGGAGUUCUACAGUCCGACGAUC … UGGAAUUCUCGGGUGUCAAGG
With `GCAGGAAGUAAAAACAAAUGGAAAUGCUUCGGAUAGUGGCAGGGGUGGGGGUUAAAAAGGAAAGGGUGGGAUGGGAGUGGGUAAAGAGUU` the log2 enrichment was 1.53.
With `UAACUUUAGAGGAGGAUCUGAUGGAUAUGGCAGUGGACGUGGAUUUGGGGAUGACUAUAAUGGGUAUGGAGGAGGACCUGGAGGUGGCAA` the log2 enrichment was 0.287.
For `UGGCCAUGGUGGCAUGCGGGGAGGAAGAGGUGGCCUCAUGGAUCGUGGUGGUCCCGGUGGAAUGUUCAGAGGUGGCCGUGGUGGAGACAG`, the log2 enrichment was -0.509.
The log2 enrichment of `AGUCCUGUGCUACACAUCGUAUGUACCGAAUCGGGGAAAGGGGAGGGGAAAAAGGGGAAAGUAUUAUGUUACGCCGUUCGGAUCUGCACU` is reported as 0.43.
For `CUCAAGUCCUGUGCUACACAUCGUAUGUACCGAAUCGGUGGUUUUUGGUUUGGAAAGUAUUAUGUUACGCCGUUCGGAUCUGCACUUCCA`, the log2 enrichment was -0.228.
For `GUCCUGUGCUACACAUCGUAUGUACCGAAUCGGGGUUUGGGGUUUUUGGGGAAAGGGGAAAGUAUUAUGUUACGCCGUUCGGAUCUGCAC`, the log2 enrichment was -0.0831.
`AAGUCCUGUGCUACACAUCGUAUGUACCGAAUCGGGCCCCGGCCCCGGGCCCCGGGGAAAGUAUUAUGUUACGCCGUUCGGAUCUGCACU` gave a log2 enrichment of -2.75.
For `UGGCCCUGGUGGCAUGCGGGGAGGAAGAGGUGGCCUCAUGGAUCGUGGUGGUCCCGGUGGAACGUUCAGAGGUGGCCGUGGUGGAGACAG`, the log2 enrichment was 0.541.

Block 4
Target: Replicase polyprotein 1ab, polymerase (rep, Severe acute respiratory syndrome coronavirus 2, UniProt P0DTD1)
Effect on: enzyme activity
Mode: inhibitor
Concentration: 20 µM
`Nc1nc(=O)n([C@H]2C[C@H](O)[C@@H](CO)O2)cc1Cl` has an inhibition of 0.46%.
With `CC1(C)CCC(C)(C)c2cc(Cn3cccn3)c(/C=C/c3ccc(C(=O)O)cc3)cc21` the inhibition was 1.68%.
`CC[C@H](CC#N)OC(=O)N[C@@H](C)c1cccc(NC(=O)Nc2ccc(-c3cnco3)c(OC)c2)c1` gave an inhibition of -2.78%.
The inhibition of `CCOC(=O)C1=C(C)NC(C)=C(C(=O)OCC)C1c1ccccc1/C=C/C(=O)OC(C)(C)C` is reported as 9.11%.
`CCC1(c2ccc(N)cc2)CCC(=O)NC1=O` (stereo not drawn) gave an inhibition of 3.48%.
For `COc1ccc(CCO[C@@H]2CCCC[C@H]2N2CC[C@@H](O)C2)cc1OC`, the inhibition was -5.99%.
For `CCOC(=O)N[C@@H]1CC[C@@H]2[C@@H](C1)C[C@H]1C(=O)O[C@H](C)[C@H]1[C@H]2/C=C/c1ccc(-c2cccc(F)c2)cn1`, the inhibition was 11.5%.
`CNCC(=O)O` gave an inhibition of 2.89%.
`O=C1C[C@@H]2OCC=C3CN4CC[C@]56c7ccccc7N1[C@H]5[C@H]2[C@H]3C[C@H]46` gave an inhibition of -1.74%.
`CC[C@H](C(=O)N1CCCC[C@H]1C(=O)O[C@H](CCc1ccc(OC)c(OC)c1)c1cccc(OCC(=O)NCCNC(=O)COc2cccc([C@@H](CCc3ccc(OC)c(OC)c3)OC(=O)[C@@H]3CCCCN3C(=O)[C@@H](CC)c3cc(OC)c(OC)c(OC)c3)c2)c1)c1cc(OC)c(OC)c(OC)c1` has an inhibition of 0.7%.
For `CCCCn1ccc(N2CCC(c3ccccc3)CC2)c(Cl)c1=O`, the inhibition was -4.55%.
`C=CCc1ccc(O)c(-c2cc(CC=C)ccc2O)c1` has an inhibition of -7.5%.
With `CCC[C@H](N[C@@H](C)C(=O)N1[C@H](C(=O)O)C[C@@H]2CCCC[C@@H]21)C(=O)OCC` the inhibition was -4.66%.
With `Oc1cc(CNC(=S)/C=C/c2cc(O)c(O)c(Br)c2)cc(O)c1O` the inhibition was 81.9%.
The inhibition of `COC(=O)C1=C(C)NC(C)=C(C(=O)NCCCN2CCC(c3ccccc3)(c3ccccc3)CC2)C1c1ccc([N+](=O)[O-])cc1` (stereo not drawn) is reported as 6.42%.
`C#C[C@]1(O)CC[C@H]2[C@@H]3CCC4=CCCC[C@@H]4[C@H]3C(=C)C[C@@]21CC` has an inhibition of 5.09%.
`C[C@H]1CNCCCN1S(=O)(=O)c1cccc2cncc(F)c12` has an inhibition of 2.61%.
`O=c1cc(-c2ccccc2)oc2cc(O)c(O)c(O)c12` gave an inhibition of 71.7%.
With `O=C(O)Cc1sc(-c2ccccc2)nc1-c1ccc(Cl)cc1` the inhibition was 15.6%.
With `S=C=Nc1ccc(N=C=S)cc1` the inhibition was -1.71%.
With `C=C1/C(=C\C=C2/CCC[C@]3(C)[C@@H]([C@H](C)OCCC(C)(C)O)CC[C@@H]23)C[C@@H](O)C[C@@H]1O` the inhibition was -5.08%.
For `Fc1ccc(C(OCCN2CCN(CCCc3ccccc3)CC2)c2ccc(F)cc2)cc1`, the inhibition was -2.64%.
`CCCCC/C=C\C/C=C\C/C=C\CCCCC(=O)O` gave an inhibition of -0.46%.
`O=C(OC[C@H]1O[C@@H](OC(=O)c2cc(O)c(O)c(OC(=O)c3cc(O)c(O)c(O)c3)c2)[C@H](OC(=O)c2cc(O)c(O)c(OC(=O)c3cc(O)c(O)c(O)c3)c2)[C@@H](OC(=O)c2cc(O)c(O)c(OC(=O)c3cc(O)c(O)c(O)c3)c2)[C@@H]1OC(=O)c1cc(O)c(O)c(OC(=O)c2cc(O)c(O)c(O)c2)c1)c1cc(O)c(O)c(OC(=O)c2cc(O)c(O)c(O)c2)c1` gave an inhibition of 98.5%.
The inhibition of `CCC(C)n1ncn(-c2ccc(N3CCN(c4ccc(OC[C@H]5CO[C@](Cn6cncn6)(c6ccc(Cl)cc6Cl)O5)cc4)CC3)cc2)c1=O` (stereo partly drawn) is reported as 1.26%.

Block 5
Target: Sal-like protein 4, full length isoform A (SALL4, Homo sapiens, UniProt Q9UJQ4, residues 1-1053)
Sequence of UniProt Q9UJQ4 (whole entry, looked up): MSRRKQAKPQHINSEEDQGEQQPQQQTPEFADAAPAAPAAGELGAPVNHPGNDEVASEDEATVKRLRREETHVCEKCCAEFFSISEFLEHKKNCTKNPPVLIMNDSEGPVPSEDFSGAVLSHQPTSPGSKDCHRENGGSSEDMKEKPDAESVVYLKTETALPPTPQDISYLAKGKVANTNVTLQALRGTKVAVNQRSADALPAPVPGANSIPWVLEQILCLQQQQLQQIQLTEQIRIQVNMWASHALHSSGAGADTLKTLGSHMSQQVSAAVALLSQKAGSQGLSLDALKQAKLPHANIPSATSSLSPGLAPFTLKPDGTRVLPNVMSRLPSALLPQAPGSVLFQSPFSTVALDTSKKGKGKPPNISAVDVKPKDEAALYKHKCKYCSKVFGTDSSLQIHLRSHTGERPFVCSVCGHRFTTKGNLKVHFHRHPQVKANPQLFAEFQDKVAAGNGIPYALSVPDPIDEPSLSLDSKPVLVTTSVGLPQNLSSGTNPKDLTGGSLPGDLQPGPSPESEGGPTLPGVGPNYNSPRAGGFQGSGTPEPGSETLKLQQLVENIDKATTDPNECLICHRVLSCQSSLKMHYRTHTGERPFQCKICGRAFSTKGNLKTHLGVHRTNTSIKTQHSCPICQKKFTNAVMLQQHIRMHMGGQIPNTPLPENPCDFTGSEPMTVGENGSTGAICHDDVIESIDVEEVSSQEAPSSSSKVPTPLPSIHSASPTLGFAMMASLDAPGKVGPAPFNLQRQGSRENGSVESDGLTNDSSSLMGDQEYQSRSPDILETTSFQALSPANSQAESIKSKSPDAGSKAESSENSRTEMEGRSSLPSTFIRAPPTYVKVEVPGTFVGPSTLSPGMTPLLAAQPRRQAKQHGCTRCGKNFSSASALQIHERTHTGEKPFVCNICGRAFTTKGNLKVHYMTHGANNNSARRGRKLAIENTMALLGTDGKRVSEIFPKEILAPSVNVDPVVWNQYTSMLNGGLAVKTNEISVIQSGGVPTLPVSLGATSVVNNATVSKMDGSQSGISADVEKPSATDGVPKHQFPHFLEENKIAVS
Method: universal PBM
Molecule type: double-stranded DNA, one strand shown
Matrix: in vitro
Concentration: 600 nM
Setting: 8-mer, flanks averaged, mean of replicates
Direction: higher = stronger binding
`TCCCACCA` gave an E-score of -0.191.
`ATGGTACC` gave an E-score of -0.108.
The E-score of `AAAATTCG` is reported as 0.255.
For `CGGTTCTA`, the E-score was -0.0625.
With `ACTTTAGC` the E-score was 0.144.
`GTACTGTA` gave an E-score of 0.115.
With `TTCACGAA` the E-score was -0.0185.
With `TAGGCATA` the E-score was 0.178.

Block 6
Target: RING finger protein unkempt homolog, zinc fingers 1-6, GST-SBP tag (UNK, Homo sapiens, UniProt Q9C0B0, residues 30-357)
Method: RNA Bind-n-Seq
Molecule type: RNA
Matrix: in vitro
Concentration: not given
Setting: RNA with constant flanks, ends assumed
Reference: input RNA pool
Direction: higher = stronger binding
Constant ends, left off below: GGGAGUUCUACAGUCCGACGAUC … CAACAGAGGAUUGAGCAUCA
Residues (chain): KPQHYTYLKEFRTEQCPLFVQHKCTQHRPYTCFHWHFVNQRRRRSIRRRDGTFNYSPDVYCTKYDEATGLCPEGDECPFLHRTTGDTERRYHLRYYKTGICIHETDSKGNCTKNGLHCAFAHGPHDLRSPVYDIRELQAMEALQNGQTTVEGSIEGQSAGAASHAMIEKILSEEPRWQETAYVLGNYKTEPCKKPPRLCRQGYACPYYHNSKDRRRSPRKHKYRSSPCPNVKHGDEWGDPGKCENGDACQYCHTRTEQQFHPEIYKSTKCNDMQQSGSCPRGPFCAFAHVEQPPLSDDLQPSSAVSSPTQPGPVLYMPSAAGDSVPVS
With `GUGGUGACUUGGGAUUUUUAACCUUAUAUAUCUUUUUCCUUUACUCAAAACAAAACAAUUUUCCGCACACUGAAAAAAAAAAAAAGCCAAAUGUUUUGUGCCUUUCUAAGGCAGCACUGU` the bound/input enrichment was 1.36 ratio.
`ACAAAGCACUUCAUCUAUUUUUACUUGGGUCAAGUUGCAAUCCUCCUCUUCAAGUCAGGCCCGGUGGCCAUGGUGAAGGUGUCAGUGGCGGCGGCAGCGAUGGCAAGCAGGCGGCGUUGC` has a bound/input enrichment of 0.335 ratio.
The bound/input enrichment of `AGUCUGGUGAAUGAGACCACUCUGAUCAAAUACUCCAGGCUGCCAACCAUAAACAAGCACCGUUUCCGGUACUUUGUUUUGGAUAACAGUGUCAUCCUGGCAAUGCUGGAGCAACCGCUU` is reported as 0.0289 ratio.
`UGGCAGAUCUUUAAAACUUCAGCAACCAAAGGCACUGGCCUUGAUGAGGCAAUGGAAUGGUCCGUUGAAACCCUGAAAAGCAGACAGUGAGCCCAUUCACGUCAGCGCCUGUGAGCCAAC` gave a bound/input enrichment of 0.0932 ratio.
The bound/input enrichment of `GCAAUAAUAUGUCAAUAAGUUACAUAAAGAUGCCCAUGUGACAGCACCCCCAAUCAGUGGCUCCGAGGGCUUAAAAAUGCUGUAUUUAUUUUUAAAACUUUGGCUUAAAGGCAUAAGAAG` is reported as 0.336 ratio.

Excerpt of the above (block 3):
For `GUCCUGUGCUACACAUCGUAUGUACCGAAUCGGGGUUUGGGGUUUUUGGGGAAAGGGGAAAGUAUUAUGUUACGCCGUUCGGAUCUGCAC`, the log2 enrichment was -0.0831.
With `GCAGGAAGUAAAAACAAAUGGAAAUGCUUCGGAUAGUGGCAGGGGUGGGGGUUAAAAAGGAAAGGGUGGGAUGGGAGUGGGUAAAGAGUU` the log2 enrichment was 1.53.
`AAGUCCUGUGCUACACAUCGUAUGUACCGAAUCGGGCCCCGGCCCCGGGCCCCGGGGAAAGUAUUAUGUUACGCCGUUCGGAUCUGCACU` gave a log2 enrichment of -2.75.
For `CUCAAGUCCUGUGCUACACAUCGUAUGUACCGAAUCGGUGGUUUUUGGUUUGGAAAGUAUUAUGUUACGCCGUUCGGAUCUGCACUUCCA`, the log2 enrichment was -0.228.
